Experimental data gathered from unrelated publications.
Each numbered part is a random draw from the data of one study; scales do not carry over between parts. Changes are numbered by the printed parent chain.

Sample 1
Target: Histone acetyltransferase KAT6A, winged helix 1, GST fusion (KAT6A, Homo sapiens, UniProt Q92794, residues 1-85)
Technique: protein binding microarray
Molecule type: double-stranded DNA, one strand shown
Sample: in vitro
Concentration: not given
Notes: 8-mer, flanks averaged, mean of 2 arrays, mostly near background
Reference: not given
Direction: higher = stronger binding
Residues (chain): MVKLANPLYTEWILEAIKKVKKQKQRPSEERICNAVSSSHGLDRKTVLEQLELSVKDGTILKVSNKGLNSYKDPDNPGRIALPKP
| Sequence | E-score |
| --- | --- |
| AACTCTAC | -0.105 |
| CCAACTAG | -0.128 |
| TTCTTCAA | -0.118 |
| AAGTTGCG | -0.00204 |
| AGTTGATA | -0.139 |
| GGAAATCA | -0.136 |
| AACCTTCA | -0.259 |

Sample 2
Target: CCNB2, cyclin fold, Cln2 fusion (human)
Technique: yeast growth competition, sequencing
Sample: yeast
Notes: strong parent motif
Reference: not given
Direction: higher = stronger binding
Parent: MICAL3 docking peptide (human); LQLRRQLSFSEDS
| Substitution | normalised enrichment score |
| --- | --- |
| LQLRRQLSPSEDS [F9P] | 0.304 |
| LQLRRQLSVSEDS [F9V] | 0.178 |
| LQLRRQPSFSEDS [L7P] | 0.0663 |
| LQLRRQLSWSEDS [F9W] | 1.63 |
| LQLRRQLSFFEDS [S10F] | 1.09 |

Sample 3
Target: ABI1, truncated, D143A, DHFR fusion (Arabidopsis thaliana)
Technique: DHFR PCA, deep sequencing
Sample: yeast
Notes: methotrexate growth selection, single substitutions
With: (+)-ABA 17 µM
Reference: wild-type fitted maximum
Direction: higher = stronger binding
Parent: PYL1, truncated, DHFR fusion (Arabidopsis thaliana); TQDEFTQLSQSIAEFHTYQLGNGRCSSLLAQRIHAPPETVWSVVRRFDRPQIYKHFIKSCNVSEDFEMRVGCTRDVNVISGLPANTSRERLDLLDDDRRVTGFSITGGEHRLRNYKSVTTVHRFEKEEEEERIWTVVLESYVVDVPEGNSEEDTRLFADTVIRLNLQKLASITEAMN
| Substitution | relative binding score [%] |
| --- | --- |
| R45E | 4.64 |
| F5T | 73.2 |
| E152D | 81.9 |
| D92K | -23.1 |
| I57N | -2.83 |
| A13W | 56.8 |
| T154K | 0.152 |
| V118I | 84 |

Single results of other studies
| Molecule | target | test | system | setting | how to read | quantity | value |
| --- | --- | --- | --- | --- | --- | --- | --- |
| PhoQ, residues 284 288 289 292 302 303 SSCCRF | PhoP, residues 12 14 15 18 19 VHSCL (Escherichia coli, UniProt P23836) | Sort-seq, measured: YFP reporter | E. coli | PhoQ-PhoP variant library, with: 10 µM Mg2+ | reference: high Mg2+ state, higher = stronger signaling | fold induction | 8.61 |
